Measurements gathered from unrelated publications.
Each numbered part is a random draw from the data of one study; scales do not carry over between parts.
Chain of UniProt O75914 (whole entry, looked up): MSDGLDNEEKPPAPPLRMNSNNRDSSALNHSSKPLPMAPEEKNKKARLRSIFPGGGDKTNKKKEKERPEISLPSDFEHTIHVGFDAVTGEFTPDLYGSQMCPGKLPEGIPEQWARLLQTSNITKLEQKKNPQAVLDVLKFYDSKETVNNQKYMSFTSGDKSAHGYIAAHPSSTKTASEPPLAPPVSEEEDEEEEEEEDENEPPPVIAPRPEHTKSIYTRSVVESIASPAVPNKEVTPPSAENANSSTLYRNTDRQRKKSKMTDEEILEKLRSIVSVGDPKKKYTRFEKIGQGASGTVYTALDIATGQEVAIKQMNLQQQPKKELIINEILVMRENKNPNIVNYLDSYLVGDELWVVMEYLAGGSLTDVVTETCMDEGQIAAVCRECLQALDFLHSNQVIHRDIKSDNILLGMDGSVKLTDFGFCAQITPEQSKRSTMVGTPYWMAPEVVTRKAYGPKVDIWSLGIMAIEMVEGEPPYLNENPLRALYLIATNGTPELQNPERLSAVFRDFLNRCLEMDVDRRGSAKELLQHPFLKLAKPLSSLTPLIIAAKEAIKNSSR
Chain of UniProt P32298 (whole entry, looked up): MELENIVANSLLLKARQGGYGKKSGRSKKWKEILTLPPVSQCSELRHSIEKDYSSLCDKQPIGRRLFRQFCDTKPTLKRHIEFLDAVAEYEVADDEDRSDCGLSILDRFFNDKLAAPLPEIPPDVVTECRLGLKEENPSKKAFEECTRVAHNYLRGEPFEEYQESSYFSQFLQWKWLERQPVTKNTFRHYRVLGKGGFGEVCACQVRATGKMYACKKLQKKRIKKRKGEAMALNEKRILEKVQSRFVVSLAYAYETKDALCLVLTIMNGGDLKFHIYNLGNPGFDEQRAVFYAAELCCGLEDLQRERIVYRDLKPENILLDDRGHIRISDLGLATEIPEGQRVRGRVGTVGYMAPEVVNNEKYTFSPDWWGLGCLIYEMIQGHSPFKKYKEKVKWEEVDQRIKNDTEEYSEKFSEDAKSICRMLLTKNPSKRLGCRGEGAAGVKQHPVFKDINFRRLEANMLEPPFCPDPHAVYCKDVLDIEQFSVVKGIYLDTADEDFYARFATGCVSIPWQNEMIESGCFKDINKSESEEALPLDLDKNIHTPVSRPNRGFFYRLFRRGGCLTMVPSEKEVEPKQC
Chain of UniProt P41240 (whole entry, looked up): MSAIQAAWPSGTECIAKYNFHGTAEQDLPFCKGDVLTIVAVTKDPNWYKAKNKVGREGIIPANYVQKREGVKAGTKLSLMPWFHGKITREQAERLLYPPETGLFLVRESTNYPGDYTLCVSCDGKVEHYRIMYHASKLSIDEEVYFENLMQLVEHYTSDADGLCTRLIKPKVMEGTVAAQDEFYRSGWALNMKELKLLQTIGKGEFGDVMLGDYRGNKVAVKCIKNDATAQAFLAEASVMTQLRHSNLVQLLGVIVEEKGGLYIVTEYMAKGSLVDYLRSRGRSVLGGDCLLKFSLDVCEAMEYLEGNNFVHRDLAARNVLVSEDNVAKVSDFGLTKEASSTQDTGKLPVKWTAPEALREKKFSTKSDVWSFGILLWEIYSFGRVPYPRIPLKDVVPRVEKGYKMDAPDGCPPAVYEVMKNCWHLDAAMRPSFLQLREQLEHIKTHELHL
Chain of UniProt O75676 (whole entry, looked up): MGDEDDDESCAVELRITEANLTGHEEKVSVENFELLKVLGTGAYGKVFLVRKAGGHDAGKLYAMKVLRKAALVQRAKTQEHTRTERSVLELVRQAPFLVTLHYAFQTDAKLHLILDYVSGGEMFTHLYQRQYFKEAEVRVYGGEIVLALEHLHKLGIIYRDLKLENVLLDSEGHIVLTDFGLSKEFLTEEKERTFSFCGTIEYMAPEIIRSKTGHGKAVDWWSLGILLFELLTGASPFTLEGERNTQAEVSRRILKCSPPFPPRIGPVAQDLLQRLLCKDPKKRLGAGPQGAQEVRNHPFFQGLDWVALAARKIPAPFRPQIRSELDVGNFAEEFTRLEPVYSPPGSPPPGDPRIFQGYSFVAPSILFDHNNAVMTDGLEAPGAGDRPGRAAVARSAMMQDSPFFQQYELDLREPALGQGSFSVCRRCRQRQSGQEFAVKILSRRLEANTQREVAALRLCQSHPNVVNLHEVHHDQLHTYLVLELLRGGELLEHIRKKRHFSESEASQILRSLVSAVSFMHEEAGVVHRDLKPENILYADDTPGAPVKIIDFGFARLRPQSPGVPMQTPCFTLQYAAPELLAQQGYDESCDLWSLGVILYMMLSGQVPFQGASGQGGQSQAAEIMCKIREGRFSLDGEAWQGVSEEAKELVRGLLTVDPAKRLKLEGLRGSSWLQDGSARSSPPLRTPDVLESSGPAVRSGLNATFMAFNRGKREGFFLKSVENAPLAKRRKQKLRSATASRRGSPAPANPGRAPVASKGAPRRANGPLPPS
Chain of UniProt Q7KZI7 (whole entry, looked up): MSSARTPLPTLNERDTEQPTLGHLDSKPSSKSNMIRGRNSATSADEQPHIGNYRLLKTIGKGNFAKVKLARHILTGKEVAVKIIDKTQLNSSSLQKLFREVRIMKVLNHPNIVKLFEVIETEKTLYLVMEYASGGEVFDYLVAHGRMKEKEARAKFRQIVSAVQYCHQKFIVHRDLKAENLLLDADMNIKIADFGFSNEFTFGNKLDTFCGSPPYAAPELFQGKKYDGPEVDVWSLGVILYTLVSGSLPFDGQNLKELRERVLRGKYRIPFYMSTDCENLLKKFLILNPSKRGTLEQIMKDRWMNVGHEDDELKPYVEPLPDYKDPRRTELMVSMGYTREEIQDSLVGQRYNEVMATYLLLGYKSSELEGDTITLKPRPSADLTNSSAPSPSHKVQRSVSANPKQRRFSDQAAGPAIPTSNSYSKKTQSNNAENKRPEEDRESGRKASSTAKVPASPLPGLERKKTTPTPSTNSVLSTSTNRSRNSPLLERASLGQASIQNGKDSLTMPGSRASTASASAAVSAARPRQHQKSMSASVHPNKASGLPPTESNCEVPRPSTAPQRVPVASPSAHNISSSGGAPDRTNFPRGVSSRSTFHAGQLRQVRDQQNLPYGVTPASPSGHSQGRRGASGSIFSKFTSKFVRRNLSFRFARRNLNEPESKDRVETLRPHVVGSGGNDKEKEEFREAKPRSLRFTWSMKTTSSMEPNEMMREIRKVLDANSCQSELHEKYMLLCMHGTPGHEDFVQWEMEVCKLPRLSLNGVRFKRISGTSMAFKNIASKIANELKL
Chain of UniProt P49761 (whole entry, looked up): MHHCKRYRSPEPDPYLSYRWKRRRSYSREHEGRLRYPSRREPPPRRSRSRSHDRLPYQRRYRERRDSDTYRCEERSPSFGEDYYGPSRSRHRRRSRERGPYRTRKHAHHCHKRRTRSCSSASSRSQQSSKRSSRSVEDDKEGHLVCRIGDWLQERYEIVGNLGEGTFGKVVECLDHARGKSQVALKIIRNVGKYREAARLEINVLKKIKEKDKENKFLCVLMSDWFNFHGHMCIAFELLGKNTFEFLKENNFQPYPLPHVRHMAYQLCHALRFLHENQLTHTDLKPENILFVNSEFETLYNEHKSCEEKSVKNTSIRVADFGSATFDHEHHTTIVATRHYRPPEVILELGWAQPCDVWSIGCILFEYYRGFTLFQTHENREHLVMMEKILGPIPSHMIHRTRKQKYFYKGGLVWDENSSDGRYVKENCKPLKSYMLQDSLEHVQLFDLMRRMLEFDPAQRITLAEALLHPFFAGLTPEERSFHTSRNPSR
Chain of UniProt P50750 (whole entry, looked up): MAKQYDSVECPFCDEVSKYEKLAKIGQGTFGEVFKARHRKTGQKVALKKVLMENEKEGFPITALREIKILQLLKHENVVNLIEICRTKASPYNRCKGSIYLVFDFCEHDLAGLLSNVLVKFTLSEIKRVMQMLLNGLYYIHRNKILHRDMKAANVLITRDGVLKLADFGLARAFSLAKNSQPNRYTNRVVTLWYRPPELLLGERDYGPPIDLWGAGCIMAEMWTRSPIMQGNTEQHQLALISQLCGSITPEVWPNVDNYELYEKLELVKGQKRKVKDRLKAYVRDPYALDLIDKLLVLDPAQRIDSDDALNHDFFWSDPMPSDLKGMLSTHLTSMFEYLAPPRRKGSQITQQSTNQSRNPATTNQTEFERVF
Chain of UniProt Q9HAZ1 (whole entry, looked up): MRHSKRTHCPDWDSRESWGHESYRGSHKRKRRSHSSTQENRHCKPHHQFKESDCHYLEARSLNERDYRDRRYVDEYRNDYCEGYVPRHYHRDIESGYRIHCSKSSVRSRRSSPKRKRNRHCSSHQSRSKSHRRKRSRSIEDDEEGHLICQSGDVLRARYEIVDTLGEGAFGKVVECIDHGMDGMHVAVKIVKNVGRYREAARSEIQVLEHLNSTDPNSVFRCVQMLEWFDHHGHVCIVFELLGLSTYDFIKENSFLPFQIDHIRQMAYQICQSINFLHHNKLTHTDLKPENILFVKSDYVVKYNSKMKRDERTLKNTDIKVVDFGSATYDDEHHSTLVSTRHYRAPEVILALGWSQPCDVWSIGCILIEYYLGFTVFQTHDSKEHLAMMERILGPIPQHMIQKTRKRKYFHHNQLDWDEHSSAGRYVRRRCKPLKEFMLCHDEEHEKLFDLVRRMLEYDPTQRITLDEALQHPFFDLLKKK

Study 1
Structure (SMILES): Cc1cc(Nc2nc(-c3ccccc3)nc3ccccc23)n[nH]1
Read-out: enzyme activity
Action: inhibitor
Tested at: 0.5 µM
Relative to: control
target | remaining activity [%]
GRK4 (Homo sapiens, UniProt P32298) | 92.1
PLK3 (Homo sapiens, UniProt Q9H4B4) | 88.3
ROCK1 (Homo sapiens, UniProt Q13464) | 98.8
CLK3 (Homo sapiens, UniProt P49761) | 33.8
MARK4 (Homo sapiens, UniProt Q96L34) | 83.5
PAK3 (Homo sapiens, UniProt O75914) | 90.2
RPS6KA4 (Homo sapiens, UniProt O75676) | 108
CDC42BPB (Homo sapiens, UniProt Q9Y5S2) | 87.1
Cyclin-dependent kinase 9, with cyclin K (CDK9, Homo sapiens, UniProt P50750) | 89.8
AKT2 (Homo sapiens, UniProt P31751) | 127
CLK4 (Homo sapiens, UniProt Q9HAZ1) | 34.3
DCLK2 (Homo sapiens, UniProt Q8N568) | 87.4
MARK2 (Homo sapiens, UniProt Q7KZI7) | 89.6

Study 2
Organism: Sarcocystis neurona
Read-out: parasite growth
Tested at: 10 µM
Time: 96 h
Setting: first screen
Relative to: untreated
SMILES | log2 fold change
CC1(C)O[C@@H]2[C@@H](CO[C@@]3(COS(N)(=O)=O)OC(C)(C)O[C@@H]23)O1 | 0.04
Nc1ccc(S(=O)(=O)c2ccc(N)cc2)cc1 | 0.28
CC(C)(C)NC(=O)[C@@H]1CN(Cc2cccnc2)CCN1C[C@@H](O)C[C@@H](Cc1ccccc1)C(=O)N[C@H]1c2ccccc2C[C@H]1O | 0.23
CC12CC3CC(C)(C1)CC(N)(C3)C2 | 0.23
COc1cc(C(=O)NC2CCCNC2)cc(OC)c1OC (stereo not drawn) | 0.29
CC(C(=O)O)c1cccc(C(=O)c2ccccc2)c1 (stereo not drawn) | 0.25

Study 3
Target: Beta-1 adrenergic receptor (ADRB1, Homo sapiens, UniProt P08588)
Chain of UniProt P08588 (whole entry, looked up): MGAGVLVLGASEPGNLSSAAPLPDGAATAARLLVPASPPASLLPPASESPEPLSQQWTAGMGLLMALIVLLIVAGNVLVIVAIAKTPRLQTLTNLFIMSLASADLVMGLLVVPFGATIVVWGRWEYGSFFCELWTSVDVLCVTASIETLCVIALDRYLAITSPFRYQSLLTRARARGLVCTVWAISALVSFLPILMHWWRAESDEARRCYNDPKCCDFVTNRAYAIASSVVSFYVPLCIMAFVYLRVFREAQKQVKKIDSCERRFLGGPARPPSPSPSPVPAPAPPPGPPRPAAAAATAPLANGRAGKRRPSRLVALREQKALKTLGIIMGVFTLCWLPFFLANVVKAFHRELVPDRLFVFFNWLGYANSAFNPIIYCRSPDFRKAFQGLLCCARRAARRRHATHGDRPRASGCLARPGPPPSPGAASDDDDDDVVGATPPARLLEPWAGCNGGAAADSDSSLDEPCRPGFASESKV
Action: agonist
SMILES | EC50 [µM]
O=C(Cc1ccccc1)Nc1ccc([C@@H](O)[C@H]2COCC(=O)N2Cc2ccccc2)cc1 | ≥ 100
Clc1cccc(Nc2cnc3ccc(N4CCOCC4)nn23)c1 | ≥ 100
CC1(C)CC(=O)c2cc(C(=O)Nc3ccccc3)c(O)nc2C1 | ≥ 100
Nc1nc(N)c2nc(-c3cccc(O)c3)cnc2n1 | ≥ 100
O=C(CCc1ccccc1)Nc1ccc([C@@H](O)[C@H]2COCC(=O)N2Cc2ccncc2)cc1 | ≥ 100
COc1ccccc1-c1ccc2ncc(Nc3cc(F)cc(N4CCOCC4)c3)n2n1 | ≥ 100

Study 4
SMILES: CCC(=O)N[C@H]1CC[C@@H](C(=O)N(C)c2ccc(-c3nc4ccccc4o3)cc2)C1
Read-out: cell-free assay
Method: competition with immobilised ligand
Tested at: 1 µM
target | remaining binding
PRKACA (Homo sapiens, UniProt P17612) | 100%
CSK (Homo sapiens, UniProt P41240) | 100%
STK33 (Homo sapiens, UniProt Q9BYT3) | 100%
EGFR (Homo sapiens, UniProt P00533, G719S) | 100%
PAK3 (Homo sapiens, UniProt O75914) | 98%
